Results collected from several papers.
A part holds a random share of what one study measured. Substitutions count along the parent as printed.

Block 1
Target: Fragile X messenger ribonucleoprotein 1, C-terminal low-complexity region (Fmr1, Mus musculus, UniProt P35922)
Technique: RNA Bind-n-Seq
Form: RNA
Matrix: in vitro
Tested at: 200 nM
Setting: whole 134-nt RNA, ends assumed
With: 150 mM KCl
Reference: input library
Reading: higher = stronger binding
Measurement: log2 enrichment
All sequences stand within: GGGAGUUCUACAGUCCGACGAUC … UGGAAUUCUCGGGUGUCAAGG
Oligonucleotide = CCUCAAGUCCUGUGCUACACAUCGUAUGUACCGAAUCGGUUGGUUGGGUUGGGAAAGUAUUAUGUUACGCCGUUCGGAUCUGCACUUCCA; value = -0.0697
Oligonucleotide = AGUCCUGUGCUACACAUCGUAUGUACCGAAUCGGGGAAAAGGGGAAAAGGAAAAGGGAAAGUAUUAUGUUACGCCGUUCGGAUCUGCACU; value = 0.0286
Oligonucleotide = CAAGUCCUGUGCUACACAUCGUAUGUACCGAAUCGGUUUUUUUGGUUUUUGGUGGAAAGUAUUAUGUUACGCCGUUCGGAUCUGCACUUC; value = -0.564
Oligonucleotide = GCAGGAAGUAAAAACAAAUGGAAAUGCUUCGGAUAGUGGCAGGGGUGGGGGUUGCUAAGGAAAGGGUGGGCUGGGAGUGGGUAAAGAGUU; value = 0.146
Oligonucleotide = GCAGGAAGUAAAAACAAAUGGAAAUGCUUCGGAUAGUGGCAGGGGUGGGGGUUGCUAAGGAAAGGGUGGGAUGGGAGUGGGUAAAGAGCU; value = 0.152
Oligonucleotide = CCUCAAGUCCUGUGCUACACAUCGUAUGUACCGAAUCGGGGCGGGCGGGCGGAAAGUAUUAUGUUACGCCGUUCGGAUCUGCACUUCCAG; value = 1.3
Oligonucleotide = GUCCUGUGCUACACAUCGUAUGUACCGAAUCGGGGAAAAAGGGGUUUUUGGGGAGGGGAAAGUAUUAUGUUACGCCGUUCGGAUCUGCAC; value = 0.521
Oligonucleotide = CCUGUGCUACACAUCGUAUGUACCGAAUCGGCCCCCCCGGGCCCCCCCGGGCCCCCCCGGGAAAGUAUUAUGUUACGCCGUUCGGAUCUG; value = -0.811
Oligonucleotide = GUCCUGUGCUACACAUCGUAUGUACCGAAUCGGUUUUUUUGGAAAAAGGAAAAAAAGGAAAGUAUUAUGUUACGCCGUUCGGAUCUGCAC; value = -0.922
Oligonucleotide = UCAAGUCCUGUGCUACACAUCGUAUGUACCGAAUCGGUUUUUUUGGAGGAAAGGAAAGUAUUAUGUUACGCCGUUCGGAUCUGCACUUCC; value = -0.438

Block 2
Target: RNA binding protein fox-1 homolog 2, RRM domain, GST-SBP tag (RBFOX2, Homo sapiens, UniProt O43251-10, residues 100-194)
Technique: RNA Bind-n-Seq
Form: RNA
Matrix: in vitro
Tested at: 365 nM
Setting: natural RNA segment, single round, ends assumed
Reference: no-protein control
Reading: higher = stronger binding
Measurement: RBNS enrichment (R)
All sequences stand within: GGGAGUUCUACAGUCCGACGAUC … UGGAAUUCUCGGGUGCCAA
Target sequence (chain): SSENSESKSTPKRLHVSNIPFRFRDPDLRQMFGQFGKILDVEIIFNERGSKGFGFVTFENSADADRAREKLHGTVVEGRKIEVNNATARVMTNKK
Oligonucleotide = CAUUUUCCUACCUAUAUUACACAAAAAAGUAUAGAAAAGAUUUAAGUAAUUUUGCCAUCCUAGGCUUAAAUGCAAUAUUCCUGGUAUUAUUUACAAUGCAGAAUUUUUUG; value = 0.505
Oligonucleotide = CAUGGGCCAGUGGGACUGGAAGUGACCUGUACAAGUGAUGCAGAAAGGAGGGUUUCAAAGAAAAAGGAUUUUGUUUAAAAUACUUUAAAAAUGUUAUUUCCUGCAUCCCU; value = 0.393
Oligonucleotide = CCCACCAUGGUCCCCUCAGUUGCACCUAGUGUCUAGCAAUGUGUCUUGCAAGAAAUUCCUAAUUCUUCUGCUGACUUGGAGCUCGCUGCCACAGACAGCACAGCCCUUGC; value = 0.532
Oligonucleotide = CUGUUAAAUUGAACGUAAAUAACUUUGGAAAACAGUUUUGACACUAGAACAAGGUCGCUUCUCUUUUCCUCUUCUCUCCCAACCUGUUAACCUAGUGCUAGAUAGUCAGC; value = 0.457
Oligonucleotide = GACUGCUGGAACCCAAAACUGACAAGGUUUAUUUUUUCCAGAGCCGGUGGCUGGUCUUCCAUUUACAGUGUCACUAUUCCUUGAUGGAGCAGUUAUGUGCCCGCUCUGGU; value = 0.792
Oligonucleotide = AGCAGGGCCAUUCCUACUGAAGGACGGGCCCCCUACGGAGAUGAAAUUUGUUUCCUGGUGAGCACAGAAUCAGAACAAAGAACAAUAUCCCAAAGAGGCCCUGUGUCUAC; value = 0.356
Oligonucleotide = GAGAGCAAACAAACAGUCAUGGUCUAAAACCCACAUAGCACUUUGCUCUUAGUUACAUGUAAAAUUUUAGAUUUCUAAAACAGGUGGGCAAUCAUUUUGAAUACUGUUCU; value = 0.342
Oligonucleotide = CCUUCCCUGUUUUCUCCCCAGAAUUCUAAAACAAAGUUCAGUGGCGAGCAGCAUCUCUAGGCUCUGGUCCUGUCUGGCCAUGGUGCGCCCGUGGCCCUGCCUCCUAGUGC; value = 0.538
Oligonucleotide = UUACUUAUUAAGGAGAAUUGGAAAUACAUAUGCCCAUGCUUAAAUUUUAUAGCUUUAAUUUGUGUUAUUUCUUUAUUGACGGGAAGAGGUACAUCUUUUUUUCCUUACUG; value = 0.405
Oligonucleotide = CUCCAUGAAUUUCUGCCUAUGAGGCAUUUGCCUCCAAGUAGCCUAUCCUUCAGAAUUACUUGUAGGAUAUUCCUCUCUUCAUGUUCUAAUAAACUUCUACAUCAUCAUCA; value = 0.524
Oligonucleotide = GUAUCCCCCCCAAAAUUUUAGAAUCUUGCUAUAUCCAAGCAAGACAUUAUUAAUAUUUUUUUUAAACUAAUUUGGGGAGGGAGGGUUAGCUUAAGUGCUAAGUCAGGUGU; value = 0.487
Oligonucleotide = AAUGACUUGUAUUGAUUGGUUUAUAACUUCACACAGGGGUGACAUAAAUGUAUAUCUUGAAAAAGAUAUAGGUCACAGGUGGCUUAACUCUCCCUAGUUCUCAGUAGAAU; value = 0.318

Block 3
Target: Histone acetyltransferase KAT6A, both winged helices, GST fusion (KAT6A, Homo sapiens, UniProt Q92794, residues 1-181)
Technique: protein binding microarray
Form: double-stranded DNA, one strand shown
Matrix: in vitro
Tested at: not given
Setting: 8-mer, flanks averaged, mean of 2 arrays, mostly near background
Reference: not given
Reading: higher = stronger binding
Measurement: E-score
Target sequence (chain): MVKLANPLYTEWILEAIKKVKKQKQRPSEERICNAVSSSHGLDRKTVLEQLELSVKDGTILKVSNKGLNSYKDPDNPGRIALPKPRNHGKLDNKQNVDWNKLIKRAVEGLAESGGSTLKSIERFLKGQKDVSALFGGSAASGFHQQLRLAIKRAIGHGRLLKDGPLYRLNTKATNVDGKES
Oligonucleotide = CAGCCAAG; value = -0.212
Oligonucleotide = AAAAGGGG; value = -0.159
Oligonucleotide = CCAAATTC; value = -0.214
Oligonucleotide = ATCCTTCG; value = 0.00611
Oligonucleotide = TCATTCCA; value = -0.0862
Oligonucleotide = AGTCGTAG; value = -0.216
Oligonucleotide = GAAGAAGC; value = 0.0102
Oligonucleotide = AGCACCCG; value = 0.221
Oligonucleotide = CCTTGCCA; value = -0.132
Oligonucleotide = CAGAAGCG; value = 0.121
Oligonucleotide = TGAAGACA; value = -0.0368
Oligonucleotide = ACGACCGA; value = -0.0562
Oligonucleotide = CCCGCAGA; value = 0.224
Oligonucleotide = CCGGCGGC; value = 0.363
Oligonucleotide = ACGTTCCT; value = -0.0416
Oligonucleotide = AAGTACTC; value = -0.0709
Oligonucleotide = GCTTGAAA; value = -0.125
Oligonucleotide = AACGCGCC; value = 0.267
Oligonucleotide = CAAGGGGC; value = -0.0729
Oligonucleotide = AGTATCAG; value = -0.167
Oligonucleotide = ACTACCAC; value = -0.197
Oligonucleotide = CCGCCAGC; value = 0.157
Oligonucleotide = ATAAGTCC; value = -0.136
Oligonucleotide = AGACCCTA; value = -0.173
Oligonucleotide = AGGAGATA; value = -0.145

Block 4
Target: CCNE2, cyclin fold, Cln2 fusion (human)
Technique: yeast growth competition, sequencing
Matrix: yeast
Setting: strong parent motif
Reference: not given
Reading: higher = stronger binding
Measurement: normalised enrichment score
Parent: RBL2 docking peptide (human); STTRRRLFVENDS; partner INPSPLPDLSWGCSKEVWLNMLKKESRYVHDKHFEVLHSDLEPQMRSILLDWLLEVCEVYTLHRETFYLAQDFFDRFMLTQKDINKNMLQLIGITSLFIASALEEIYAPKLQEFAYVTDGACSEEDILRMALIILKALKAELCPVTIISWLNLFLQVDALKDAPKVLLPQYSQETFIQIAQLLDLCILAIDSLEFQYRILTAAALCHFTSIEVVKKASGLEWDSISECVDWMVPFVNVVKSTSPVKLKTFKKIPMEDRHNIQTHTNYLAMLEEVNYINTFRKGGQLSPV
Variant = D12N; value = 3.29
Variant = F8Q; value = 0.309
Variant = R6W; value = 0.773
Variant = T2Y; value = 3.9
Variant = D12A; value = 2.58
Variant = R4C; value = 3.97
Variant = E10Q; value = 2.22
Variant = E10G; value = 3.05
Variant = E10T; value = 2.63
Variant = R4G; value = -0.373
Variant = V9S; value = 3.7
Variant = V9H; value = 3.48
Variant = D12C; value = 3.17

For quick reference, copied from above (block 2):
Oligonucleotide = CUGUUAAAUUGAACGUAAAUAACUUUGGAAAACAGUUUUGACACUAGAACAAGGUCGCUUCUCUUUUCCUCUUCUCUCCCAACCUGUUAACCUAGUGCUAGAUAGUCAGC; value = 0.457
Oligonucleotide = GACUGCUGGAACCCAAAACUGACAAGGUUUAUUUUUUCCAGAGCCGGUGGCUGGUCUUCCAUUUACAGUGUCACUAUUCCUUGAUGGAGCAGUUAUGUGCCCGCUCUGGU; value = 0.792
Oligonucleotide = AGCAGGGCCAUUCCUACUGAAGGACGGGCCCCCUACGGAGAUGAAAUUUGUUUCCUGGUGAGCACAGAAUCAGAACAAAGAACAAUAUCCCAAAGAGGCCCUGUGUCUAC; value = 0.356
Oligonucleotide = GAGAGCAAACAAACAGUCAUGGUCUAAAACCCACAUAGCACUUUGCUCUUAGUUACAUGUAAAAUUUUAGAUUUCUAAAACAGGUGGGCAAUCAUUUUGAAUACUGUUCU; value = 0.342
Oligonucleotide = CCUUCCCUGUUUUCUCCCCAGAAUUCUAAAACAAAGUUCAGUGGCGAGCAGCAUCUCUAGGCUCUGGUCCUGUCUGGCCAUGGUGCGCCCGUGGCCCUGCCUCCUAGUGC; value = 0.538
Oligonucleotide = UUACUUAUUAAGGAGAAUUGGAAAUACAUAUGCCCAUGCUUAAAUUUUAUAGCUUUAAUUUGUGUUAUUUCUUUAUUGACGGGAAGAGGUACAUCUUUUUUUCCUUACUG; value = 0.405
Oligonucleotide = CUCCAUGAAUUUCUGCCUAUGAGGCAUUUGCCUCCAAGUAGCCUAUCCUUCAGAAUUACUUGUAGGAUAUUCCUCUCUUCAUGUUCUAAUAAACUUCUACAUCAUCAUCA; value = 0.524
Oligonucleotide = GUAUCCCCCCCAAAAUUUUAGAAUCUUGCUAUAUCCAAGCAAGACAUUAUUAAUAUUUUUUUUAAACUAAUUUGGGGAGGGAGGGUUAGCUUAAGUGCUAAGUCAGGUGU; value = 0.487
